Measured values collected from several papers.
Each numbered part is a random draw from the data of one study; scales do not carry over between parts.

Series 1 — method: RNA Bind-n-Seq; molecule type: RNA; medium: in vitro; concentration: not given; notes: RNA with constant flanks, ends assumed; baseline: input RNA pool; reading: higher = stronger binding
Target: RING finger protein unkempt homolog, zinc fingers 1-6, GST-SBP tag (UNK, Homo sapiens, UniProt Q9C0B0, residues 30-357)
UniProt Q9C0B0, sequence (30-357, looked up): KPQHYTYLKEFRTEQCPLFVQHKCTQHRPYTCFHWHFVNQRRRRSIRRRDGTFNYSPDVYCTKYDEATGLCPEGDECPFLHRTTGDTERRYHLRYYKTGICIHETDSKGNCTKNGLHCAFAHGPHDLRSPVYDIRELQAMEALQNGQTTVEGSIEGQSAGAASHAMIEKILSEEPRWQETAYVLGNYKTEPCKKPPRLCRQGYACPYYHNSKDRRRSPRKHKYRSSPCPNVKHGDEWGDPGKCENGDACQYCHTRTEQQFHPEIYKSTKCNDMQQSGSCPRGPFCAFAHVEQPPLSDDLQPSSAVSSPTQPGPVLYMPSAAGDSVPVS
Shared flanks, not repeated: GGGAGUUCUACAGUCCGACGAUC … CAACAGAGGAUUGAGCAUCA
Sequence | bound/input enrichment [ratio]
UCCCCUCUGAACCCCAUAUCUUCUGUUUCAUAAUGCAGAAGUAUUCUUUUCAAUUAUAUUGUCCGUGGACUUGUUUUAAUUUUAGAGAAACUUUGAGUACAGAUACUGUGAGCUUACAUU | 0.277
UCAACCUAUGCACAGUGAGCUGGUUAAGAAGAUCCUAGGCAACAAAGCUACCUUCAGCCCUACCGUCACUUUGGAACCUAGAAGAAGAAAAUUCCACAAACCAAUUACCAUGACCAUUCC | 0.415
UUUAAAGGUUUUUUUUUUUUAAUUUAAUUUUUCCUUUUGGGGGUAAAGUUUGCUCUACCAAACCGUGAUUGUAACAAAUUGAUCUGUUUUGGAUGUUGCUAUAGUGACAUGCAGUUAUAU | 1.14
CUUAGUAGAUAAUUUGGGUGGUACUGAAGCACCUAUUAUCUCUUAUUUCUGUUCUCCCGGCUGUUAUGUUAAUUCCUCUGAUAUGUUAAAGUAAUGGGUGAGACCAGAAAAAGAAAUUUC | 0.256
UAUCCAACUUUCUUUCCACGUUUUGAAUUCCAAGAUGUUAUCCCUCCAGAUGACUUUCUAACCCGUGAUGAAGAAGUAGAUUCCGUUUUAUUUGGAAGUUUGAGAGGUCAUGUGGUUGGA | 0.378
AUGAUAUAAAACAUUUUGUGUUUCAUCUACCCAUUCAGCAAGAAUGAGUCCAGUCCCAUGUUCCGAUUAUUUUAACAUAAUUUGUGAAUGAUAGUUUCACAUUUGGCUGAUGGUUUGCAG | 0.335
AAAAAUUUGCAAGAAGAAAUUGACGCCUUAGAAUCCAGAGUGGAAUCAAUUCAGCGAGUGUCCGCAGAUUUGAAAGUUCAGUUGUAUGCAAAAUUCGGGAGCAACAUAAACCUUGAAGCU | 0.243
GACGACAAAAGAGUUGUACCUAAAGGAAAAGGAGAACAGAUUGCAAGGGAGCAUGGUAUCCGGUUUUUUGAGACUAGUGCAAAAGCAAAUAUAAACAUCGAAAAGGCGUUCCUCACGUUA | 0.685

Series 2 — method: universal PBM; molecule type: double-stranded DNA, one strand shown; medium: in vitro; concentration: 600 nM; reading: higher = stronger binding
Target: Sal-like protein 4, full length isoform A (SALL4, Homo sapiens, UniProt Q9UJQ4, residues 1-1053)
UniProt Q9UJQ4, sequence (whole entry, looked up): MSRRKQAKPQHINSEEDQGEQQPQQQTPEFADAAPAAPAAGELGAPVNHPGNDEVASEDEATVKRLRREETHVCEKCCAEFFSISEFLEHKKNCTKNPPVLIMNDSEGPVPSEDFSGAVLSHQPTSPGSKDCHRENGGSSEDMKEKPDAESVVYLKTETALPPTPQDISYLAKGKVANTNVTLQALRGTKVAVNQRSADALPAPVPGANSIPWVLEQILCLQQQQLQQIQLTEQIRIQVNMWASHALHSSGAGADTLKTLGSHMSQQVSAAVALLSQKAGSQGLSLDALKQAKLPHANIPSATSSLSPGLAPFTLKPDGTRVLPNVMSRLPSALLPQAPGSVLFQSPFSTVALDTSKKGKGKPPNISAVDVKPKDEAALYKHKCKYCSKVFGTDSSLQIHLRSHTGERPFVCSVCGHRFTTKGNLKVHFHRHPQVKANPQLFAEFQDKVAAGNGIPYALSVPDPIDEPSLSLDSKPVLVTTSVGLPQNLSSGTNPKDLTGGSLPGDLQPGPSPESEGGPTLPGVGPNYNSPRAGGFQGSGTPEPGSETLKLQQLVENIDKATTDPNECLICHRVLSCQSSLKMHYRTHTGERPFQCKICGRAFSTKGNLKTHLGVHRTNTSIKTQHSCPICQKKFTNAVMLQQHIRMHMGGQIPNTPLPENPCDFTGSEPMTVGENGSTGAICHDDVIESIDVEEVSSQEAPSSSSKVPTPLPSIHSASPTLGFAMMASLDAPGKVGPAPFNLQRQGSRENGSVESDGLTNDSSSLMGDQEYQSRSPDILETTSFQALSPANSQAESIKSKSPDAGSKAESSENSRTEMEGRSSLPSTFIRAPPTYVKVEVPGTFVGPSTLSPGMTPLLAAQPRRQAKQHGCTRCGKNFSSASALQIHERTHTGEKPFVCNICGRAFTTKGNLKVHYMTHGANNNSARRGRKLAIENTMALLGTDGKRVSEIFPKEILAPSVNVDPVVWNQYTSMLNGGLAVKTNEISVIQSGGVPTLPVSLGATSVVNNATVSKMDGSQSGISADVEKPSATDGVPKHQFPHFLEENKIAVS
Notes: 8-mer, flanks averaged, mean of replicates
Sequence | E-score
GAGCCCCC | -0.372
CTTGCATA | 0.174
ATGCGGTG | -0.315
CGGGAACA | -0.103
AGAACCTG | -0.179
CGAGCAGA | -0.266
CACACCCA | -0.106
AAAAGGGT | 0.12
CAGGATTA | 0.0617
ACAATATG | 0.332
AGCCTGGC | -0.278
CGGCGACG | -0.37
GTCGTTGA | -0.0639
AATCGGAC | -0.0598
TAGAGATA | 0.172
AAACGGTT | -0.0943
ACGTTGTA | 0.0709
ATTAGGGC | 0.0509
CACCGCTG | -0.257
ACCACACT | -0.0331
AGGGATTG | -0.182

Series 3 — method: RNA Bind-n-Seq; molecule type: RNA; medium: in vitro; concentration: 365 nM; baseline: no-protein control; reading: higher = stronger binding
Target: RNA binding protein fox-1 homolog 2, RRM domain, GST-SBP tag (RBFOX2, Homo sapiens, UniProt O43251-10, residues 100-194)
Notes: natural RNA segment, single round, ends assumed
Shared flanks, not repeated: GGGAGUUCUACAGUCCGACGAUC … UGGAAUUCUCGGGUGCCAA
Construct (chain): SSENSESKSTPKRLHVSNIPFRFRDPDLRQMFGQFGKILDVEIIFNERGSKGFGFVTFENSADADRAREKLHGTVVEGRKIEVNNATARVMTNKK
Sequence | RBNS enrichment (R)
AUCCAUGGUCCUUGAGCUCCAGAGCGGAGGGAGAUUCUCUCAGCAGGCCCAUCUCACAAAGACUGGGGAUGUGAACACAUUGGUGUGAGUCAUCAGAAACCCCGUACUCA | 0.267
AUGAAUCUUGCAUCAAUAUAAUUAUUGGGUUUUUUUUCUUUUUCCUGCUGUAUAACUCCUUGCCAUGCAAACUCUCAAGAGGCCAAUAUAUUCCUGGCCAUGUUUGAAUG | 1.01
AGCUCAUGCAUUUCUGAUUAUACAAAACAGUUUGCAGUAGGUUAUUUGUCAUUUCAGUUUUUUACUGAAAUUUGAGCUAAACAUUUUUACAUGUAAAUACUUGUAUUUAC | 0.45
GCAGACCAGAGCCUCACACCUCUGGGUUGGGUGUGGAGGAAGAGGGGUACUGAGUUCCCUGGUCCUUUGGCUGUGUGUGCAGCGUGCAGAUUUCGGGACACCGAAACUUU | 0.344
UCCUGAUUUUUCCAUAAAACAUGAGUAUUAAGAAAUAAUUCCUGGUUUGGAGAAACUGGAGAAAUCACCCUUUUAAGGAAGAAACACUGGAAAUUUCUGCUAACACCAAG | 0.359
UGGGGUCAUGGUUCAGCAGAGGUUACAUAGGAGCAAAUGGUUCUCAAUUUUCCAGUUUGAUUGAAGUGCAGAGAAAAAUCCCUUAGAUUGCAAAAUAAAAUAGUUGAACU | 0.836
GCCCUUCUCCCCAUCAAGCGCUCAGAGACGGUGUGACGAUGCCACUGGGGGUUAUGCAGCGUGGUCCAGCCGGAGCGGCCAGCAUGACCAGCUGUCCAGGGGCUGCCUCC | 0.302
UUAAGUAAAUUUUUCGUUUUACUUUUUCCACAGCAGCUAACGUGUAGGGAGACAUUAAACCCACACCAAAUCAUGAGGGGCUGAGGACCCCCAAUCUUCUUCUCUAGGUC | 0.872

Series 4 — method: RNA Bind-n-Seq; molecule type: RNA; medium: in vitro; concentration: 20 nM; notes: 6-mer, flanks averaged, single round; added: 150 mM KCl; baseline: input library; reading: higher = stronger binding
Target: TAR DNA-binding protein 43, full length, His tag (TARDBP, Homo sapiens, UniProt Q13148, residues 1-414)
Sequence | 6-mer enrichment (R)
GGGGCA | 4.47
CUUUCG | 0.578
CGCUGG | 1.37
UCUUGG | 0.853
CUUAAU | 0.581
AACACG | 0.72
GUAACG | 0.959
CGCAGA | 0.862
AAGUGU | 0.974
UGACAU | 0.656
GCUGGA | 1.36
AAGGCU | 0.749
CCUUAC | 0.606
GCCCUU | 0.697
GCAACC | 0.715
CAAAGU | 0.639
AGACCU | 0.632
AUUGCU | 0.589
UGAAAU | 0.667
AAAUGG | 0.966

A few entries again (series 2):
Sequence | E-score
ACAATATG | 0.332
AGCCTGGC | -0.278
CGGCGACG | -0.37
GTCGTTGA | -0.0639
AATCGGAC | -0.0598
TAGAGATA | 0.172
AAACGGTT | -0.0943
ACGTTGTA | 0.0709
ATTAGGGC | 0.0509
